# Assay results gathered from unrelated publications.
# Lines come from different studies, so protocols differ. ± marks the error that the study gave.
# Nuclear receptor subfamily 2 group C member 2 ligand-binding domain: Nuclear receptor subfamily 2 group C member 2, ligand-binding domain (Homo sapiens, UniProt P49116)
# Sequence of UniProt P49116 (whole entry, looked up): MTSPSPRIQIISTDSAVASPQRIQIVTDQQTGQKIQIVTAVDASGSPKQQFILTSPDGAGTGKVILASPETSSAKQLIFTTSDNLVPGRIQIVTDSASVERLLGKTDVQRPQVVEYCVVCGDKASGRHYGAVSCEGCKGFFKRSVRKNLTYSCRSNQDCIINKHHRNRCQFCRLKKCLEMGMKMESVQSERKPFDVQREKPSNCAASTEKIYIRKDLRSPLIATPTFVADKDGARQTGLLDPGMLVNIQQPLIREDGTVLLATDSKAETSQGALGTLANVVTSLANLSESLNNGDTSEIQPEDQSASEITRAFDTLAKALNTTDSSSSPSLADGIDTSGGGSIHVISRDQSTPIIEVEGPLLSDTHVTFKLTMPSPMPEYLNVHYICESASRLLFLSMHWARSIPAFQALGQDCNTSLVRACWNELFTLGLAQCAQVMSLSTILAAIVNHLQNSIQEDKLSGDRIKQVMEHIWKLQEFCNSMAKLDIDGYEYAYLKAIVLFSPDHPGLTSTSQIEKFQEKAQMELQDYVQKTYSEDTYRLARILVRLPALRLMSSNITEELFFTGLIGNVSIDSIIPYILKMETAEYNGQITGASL
# Sequence of UniProt Q04206 (whole entry, looked up): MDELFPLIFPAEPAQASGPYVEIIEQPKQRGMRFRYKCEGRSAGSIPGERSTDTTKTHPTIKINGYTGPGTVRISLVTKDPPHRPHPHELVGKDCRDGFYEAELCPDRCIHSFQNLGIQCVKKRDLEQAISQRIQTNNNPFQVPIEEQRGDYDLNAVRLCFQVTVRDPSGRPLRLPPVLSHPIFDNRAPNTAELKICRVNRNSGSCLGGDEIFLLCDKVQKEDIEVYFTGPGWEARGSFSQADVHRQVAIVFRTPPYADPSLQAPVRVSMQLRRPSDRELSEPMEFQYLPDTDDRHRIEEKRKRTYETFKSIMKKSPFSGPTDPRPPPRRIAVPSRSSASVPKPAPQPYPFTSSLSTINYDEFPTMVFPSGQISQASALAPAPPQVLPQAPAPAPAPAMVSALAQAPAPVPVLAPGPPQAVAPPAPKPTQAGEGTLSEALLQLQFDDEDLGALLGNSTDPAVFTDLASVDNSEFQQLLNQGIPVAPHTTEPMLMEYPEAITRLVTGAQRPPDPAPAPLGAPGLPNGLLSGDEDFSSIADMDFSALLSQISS
# Sequence of UniProt P61981 (whole entry, looked up): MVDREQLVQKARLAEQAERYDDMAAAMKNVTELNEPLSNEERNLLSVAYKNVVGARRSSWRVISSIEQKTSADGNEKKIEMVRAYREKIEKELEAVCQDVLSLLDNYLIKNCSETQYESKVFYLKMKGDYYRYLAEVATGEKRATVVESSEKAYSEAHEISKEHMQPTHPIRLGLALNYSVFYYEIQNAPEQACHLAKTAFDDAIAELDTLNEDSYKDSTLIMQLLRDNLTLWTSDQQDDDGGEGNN
Compound,tested on,test,system,setting,how to read,quantity,value
COc1c(O[C@@H]2O[C@H](CO)[C@@H](O)[C@H](O)[C@H]2O)c(C)cc2c1C(=O)c1c(O)cccc1C2=O,HepaRG co-cultured with HK-2,MTT,,"133.33 µM, 24 h",relative to: untreated control,cell viability,52.5 ± 9.34%
O=Cc1ccc(C(=O)N2CCC(CCO)CC2)cc1,"YWHAG/RELA, phospho-Ser45 p65 peptide (Homo sapiens, UniProt P61981+Q04206)","ternary complex formation, stabilizer, fluorescence anisotropy",,,,EC50,> 1000 µM
COc1cc2c(c(O)c1OC)C(=O)c1c(cc(C)c(O)c1OC)C2=O,HepaRG co-cultured with HK-2,MTT,,"33.33 µM, 24 h",relative to: untreated control,cell viability,75.4 ± 12.5%
Cc1cc(C(=O)NC(C)(C)COc2cccc3c2C(N)=NS(=O)(=O)N3)cc(C)n1,human peripheral blood lymphocytes,in vitro micronucleus test,0.2% DMSO,"500 µg/mL, 24 h",,micronucleated binucleated cells,0.2%
C=C1C(=O)O[C@@H]2C[C@@]3(C)CCCC(=C)[C@@H]3C[C@H]12,COS-7,,,"10 µM, 24 h, 0.1% DMSO, unit not given",relative to: vehicle control,necrotic cells,0.36 ± 0.11
Cc1cc(O)c2c(c1)C(=O)c1cccc(O)c1C2=O,HepaRG co-cultured with HK-2,MTT,,"133.33 µM, 48 h",relative to: untreated control,cell viability,57.4 ± 10.4%
COc1cc2ncnc(Nc3ccc(Oc4ccccc4)cc3C)c2cc1OC.O=C(O)C(F)(F)F,COLO 205 (BRAF V600E),resazurin,,"3 µM, 72 h, added: trametinib 0 nM",,viability,0.621 fraction of control
CC1CS(=O)(=O)CCN1/N=C/c1ccc([N+](=O)[O-])o1 (centres unmarked),PMA-differentiated THP-1 macrophages,,,"100 µM, 24 h",,viability,109 ± 9.6%
Nc1ncnc2nc[nH]c12,Nuclear receptor subfamily 2 group C member 2 ligand-binding domain,SPR imaging,,,,Kd,0.0237 nM
COc1cc2ncnc(Nc3ccc(Oc4ccccc4)c(C)c3C)c2cc1OC.Cl,COLO 205 (BRAF V600E),resazurin,,"3 µM, 72 h, unit not given, added: trametinib",relative to: DMSO,viability,0.69
COc1cccc(-c2ccc(NC(=O)C3=C(C(=O)O)CCC3)c(F)c2)c1,COS-7,,,"3 µM, 24 h, 0.1% DMSO, unit not given",relative to: vehicle control,apoptotic cells,0.71 ± 0.14
CO[C@@H]1[C@@H](OC(N)=O)[C@@H](O)[C@H](Oc2ccc3c(O)c(NC(=O)c4ccc(O)c(CC=C(C)C)c4)c(=O)oc3c2C)OC1(C)C,Nuclear receptor subfamily 2 group C member 2 ligand-binding domain,SPR imaging,,,,Kd,122 nM
CCC(=O)NS(=O)(=O)c1ccc(-c2c(-c3ccccc3)noc2C)cc1,COS-7,,,"100 µM, 24 h, 0.1% DMSO, unit not given",relative to: control,apoptosis,0.84 ± 0.15
NC(=O)[C@H](CCCN=C(N)CF)NC(=O)c1ccccc1,OCI-Ly1,,,"1 µM, 120 h",,viability,151%

# Some of these lines once more:
Compound,tested on,test,system,setting,how to read,quantity,value
Cc1cc(C(=O)NC(C)(C)COc2cccc3c2C(N)=NS(=O)(=O)N3)cc(C)n1,human peripheral blood lymphocytes,in vitro micronucleus test,0.2% DMSO,"500 µg/mL, 24 h",,micronucleated binucleated cells,0.2%
NC(=O)[C@H](CCCN=C(N)CF)NC(=O)c1ccccc1,OCI-Ly1,,,"1 µM, 120 h",,viability,151%
